Results of several laboratories.
± marks the error that the study gave.
ACHE: Acetylcholinesterase (ACHE, Homo sapiens, UniProt P22303)
UniProt P22303, sequence (whole entry, looked up): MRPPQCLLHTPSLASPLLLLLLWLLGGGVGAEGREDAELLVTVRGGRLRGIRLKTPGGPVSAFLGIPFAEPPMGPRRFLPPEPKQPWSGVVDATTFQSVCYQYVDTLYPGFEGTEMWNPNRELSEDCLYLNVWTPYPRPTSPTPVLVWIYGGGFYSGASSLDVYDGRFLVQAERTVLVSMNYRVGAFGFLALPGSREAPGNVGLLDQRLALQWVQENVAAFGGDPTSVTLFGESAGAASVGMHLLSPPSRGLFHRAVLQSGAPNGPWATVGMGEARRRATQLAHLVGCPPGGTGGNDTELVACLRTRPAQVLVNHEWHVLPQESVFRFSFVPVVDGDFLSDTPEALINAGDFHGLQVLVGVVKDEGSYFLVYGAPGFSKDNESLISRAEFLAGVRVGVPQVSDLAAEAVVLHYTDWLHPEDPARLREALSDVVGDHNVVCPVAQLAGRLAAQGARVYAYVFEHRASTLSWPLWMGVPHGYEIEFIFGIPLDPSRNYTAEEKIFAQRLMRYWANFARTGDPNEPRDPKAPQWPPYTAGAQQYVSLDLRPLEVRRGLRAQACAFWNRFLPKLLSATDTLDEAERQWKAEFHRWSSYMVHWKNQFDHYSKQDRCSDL
UniProt Q99678, sequence (whole entry, looked up): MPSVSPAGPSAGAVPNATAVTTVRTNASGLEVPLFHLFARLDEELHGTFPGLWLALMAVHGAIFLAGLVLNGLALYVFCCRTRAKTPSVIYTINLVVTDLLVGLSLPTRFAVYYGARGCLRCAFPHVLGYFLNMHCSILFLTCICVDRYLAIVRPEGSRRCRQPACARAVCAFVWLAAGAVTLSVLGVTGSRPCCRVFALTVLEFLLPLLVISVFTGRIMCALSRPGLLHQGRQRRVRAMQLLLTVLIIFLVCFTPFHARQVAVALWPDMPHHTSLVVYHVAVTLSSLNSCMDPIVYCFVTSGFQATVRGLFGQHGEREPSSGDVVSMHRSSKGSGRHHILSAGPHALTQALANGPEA
UniProt P25440, sequence (whole entry, unmodified, looked up): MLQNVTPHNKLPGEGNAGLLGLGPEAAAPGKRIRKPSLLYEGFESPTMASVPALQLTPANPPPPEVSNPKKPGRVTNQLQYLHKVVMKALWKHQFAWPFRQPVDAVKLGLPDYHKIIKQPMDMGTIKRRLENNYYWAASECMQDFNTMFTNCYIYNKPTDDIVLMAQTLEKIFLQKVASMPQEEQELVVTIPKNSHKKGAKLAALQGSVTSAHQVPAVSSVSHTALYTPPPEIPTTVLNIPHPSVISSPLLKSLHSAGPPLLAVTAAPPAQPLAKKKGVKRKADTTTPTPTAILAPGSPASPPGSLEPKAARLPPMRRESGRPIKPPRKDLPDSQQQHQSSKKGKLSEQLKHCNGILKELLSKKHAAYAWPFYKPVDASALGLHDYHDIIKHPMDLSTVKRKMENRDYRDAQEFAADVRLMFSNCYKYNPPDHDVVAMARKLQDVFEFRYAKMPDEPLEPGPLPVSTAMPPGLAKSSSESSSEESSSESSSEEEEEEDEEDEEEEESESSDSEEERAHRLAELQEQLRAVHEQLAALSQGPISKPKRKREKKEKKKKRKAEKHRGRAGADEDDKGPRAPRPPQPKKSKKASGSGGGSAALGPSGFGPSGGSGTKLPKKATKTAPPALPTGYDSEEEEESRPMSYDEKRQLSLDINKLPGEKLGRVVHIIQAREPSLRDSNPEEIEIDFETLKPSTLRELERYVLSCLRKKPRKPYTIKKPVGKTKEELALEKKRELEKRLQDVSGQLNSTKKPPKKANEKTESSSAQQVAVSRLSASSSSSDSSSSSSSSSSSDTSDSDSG
UniProt Q96LB2, sequence (whole entry, looked up): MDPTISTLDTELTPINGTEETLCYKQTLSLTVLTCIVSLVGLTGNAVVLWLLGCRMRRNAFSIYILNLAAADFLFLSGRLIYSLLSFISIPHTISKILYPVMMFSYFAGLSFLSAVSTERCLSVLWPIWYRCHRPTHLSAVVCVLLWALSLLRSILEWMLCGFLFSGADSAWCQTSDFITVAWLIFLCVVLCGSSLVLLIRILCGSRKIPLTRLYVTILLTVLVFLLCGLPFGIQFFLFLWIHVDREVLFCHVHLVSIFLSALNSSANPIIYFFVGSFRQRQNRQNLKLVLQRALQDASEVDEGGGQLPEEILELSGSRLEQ
UniProt O94768, sequence (whole entry, looked up): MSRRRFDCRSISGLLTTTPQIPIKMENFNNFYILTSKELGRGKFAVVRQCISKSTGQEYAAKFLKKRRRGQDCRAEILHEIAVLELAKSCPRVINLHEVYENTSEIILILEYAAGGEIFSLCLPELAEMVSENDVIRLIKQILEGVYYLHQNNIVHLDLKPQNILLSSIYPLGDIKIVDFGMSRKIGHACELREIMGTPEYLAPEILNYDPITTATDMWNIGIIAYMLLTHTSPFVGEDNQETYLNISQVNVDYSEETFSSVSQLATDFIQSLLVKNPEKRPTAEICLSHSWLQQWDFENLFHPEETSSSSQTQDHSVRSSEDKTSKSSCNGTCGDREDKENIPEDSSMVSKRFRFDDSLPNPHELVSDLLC
UniProt Q9NZ01, sequence (whole entry, looked up): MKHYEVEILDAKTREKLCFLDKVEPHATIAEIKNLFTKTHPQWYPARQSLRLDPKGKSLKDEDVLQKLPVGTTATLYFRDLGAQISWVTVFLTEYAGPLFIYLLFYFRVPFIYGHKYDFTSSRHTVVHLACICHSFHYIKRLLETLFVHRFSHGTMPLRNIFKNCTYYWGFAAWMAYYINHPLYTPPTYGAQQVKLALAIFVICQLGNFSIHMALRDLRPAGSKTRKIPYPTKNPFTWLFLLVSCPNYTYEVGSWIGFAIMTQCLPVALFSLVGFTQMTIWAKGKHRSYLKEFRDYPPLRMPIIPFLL
UniProt Q92993, sequence (whole entry, looked up): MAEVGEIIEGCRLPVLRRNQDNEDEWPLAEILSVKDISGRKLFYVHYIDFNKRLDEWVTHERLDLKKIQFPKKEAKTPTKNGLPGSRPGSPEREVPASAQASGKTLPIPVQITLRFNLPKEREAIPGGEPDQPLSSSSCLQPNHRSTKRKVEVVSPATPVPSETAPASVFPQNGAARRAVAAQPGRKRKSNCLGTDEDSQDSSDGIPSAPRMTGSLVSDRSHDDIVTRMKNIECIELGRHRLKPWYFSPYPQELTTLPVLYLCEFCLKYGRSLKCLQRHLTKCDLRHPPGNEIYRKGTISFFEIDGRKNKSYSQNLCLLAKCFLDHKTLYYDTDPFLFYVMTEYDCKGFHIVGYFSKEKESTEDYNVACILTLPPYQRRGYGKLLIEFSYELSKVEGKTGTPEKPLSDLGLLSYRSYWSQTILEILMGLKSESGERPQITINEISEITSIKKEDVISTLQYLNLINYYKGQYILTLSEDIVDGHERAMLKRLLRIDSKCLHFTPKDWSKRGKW
UniProt P40337, sequence (whole entry, unmodified, looked up): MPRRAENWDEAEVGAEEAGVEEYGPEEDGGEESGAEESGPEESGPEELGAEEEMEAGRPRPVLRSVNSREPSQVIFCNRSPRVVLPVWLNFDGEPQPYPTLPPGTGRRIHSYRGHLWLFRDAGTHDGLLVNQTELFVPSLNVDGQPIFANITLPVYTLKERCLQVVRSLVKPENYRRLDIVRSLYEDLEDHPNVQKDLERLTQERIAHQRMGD
UniProt Q15831, sequence (whole entry, looked up): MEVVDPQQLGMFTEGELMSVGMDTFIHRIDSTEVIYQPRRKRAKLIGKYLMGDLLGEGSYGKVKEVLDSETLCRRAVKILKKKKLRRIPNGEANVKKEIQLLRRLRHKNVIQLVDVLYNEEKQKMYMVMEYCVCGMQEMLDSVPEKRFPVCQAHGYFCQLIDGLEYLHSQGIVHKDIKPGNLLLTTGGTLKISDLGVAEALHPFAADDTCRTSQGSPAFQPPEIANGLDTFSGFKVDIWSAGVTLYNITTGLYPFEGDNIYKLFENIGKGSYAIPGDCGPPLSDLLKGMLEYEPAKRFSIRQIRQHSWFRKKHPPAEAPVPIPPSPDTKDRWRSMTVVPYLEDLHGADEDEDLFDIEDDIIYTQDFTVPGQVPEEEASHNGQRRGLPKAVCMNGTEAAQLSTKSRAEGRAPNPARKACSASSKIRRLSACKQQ

SMILES = CC[C@H](C)[C@H](NC(=O)CNC(=O)[C@@H](N)CCCCN)C(=O)N[C@@H](CC(C)C)C(=O)N[C@@H](CCCCN)C(=O)N[C@@H](CCCNC(=N)N)C(=O)N[C@@H](CCC(=O)O)C(=O)N[C@@H](CCCCN)C(=O)N[C@@H](CCCNC(=N)N)C(=O)N[C@@H](CC(C)C)C(=O)N[C@@H](CCCNC(=N)N)C(=O)N[C@@H](CCCNC(=N)N)C(=O)N[C@@H](CCCCN)C(=O)N[C@@H](CC(N)=O)C(=O)N[C@H](C(=O)N[C@@H](Cc1c[nH]cn1)C(=O)N[C@@H](Cc1c[nH]c2ccccc12)C(=O)N1CCC[C@H]1C(=O)N[C@@H](CCC(=O)O)C(=O)N[C@@H](CCC(=O)O)C(=O)NCC(=O)N[C@@H](CCCCN)C(=O)N[C@@H](CC(C)C)C(=O)N[C@@H](CCCNC(=N)N)C(=O)N[C@@H](CCC(=O)O)C(=O)N[C@@H](Cc1ccccc1)C(=O)N[C@@H](Cc1ccccc1)C(=O)N[C@@H](Cc1ccccc1)C(=O)N[C@@H](Cc1ccccc1)C(=O)N[C@@H](CCC(=O)O)C(=O)N[C@@H](CC(C)C)C(=O)N[C@@H](CC(=O)O)C(=O)N[C@@H](CCC(=O)O)C(=O)N[C@@H](C)C(=O)N[C@@H](CCC(=O)O)C(=O)N[C@@H](CCCNC(=N)N)C(=O)N[C@H](C(=O)N[C@@H](CC(N)=O)C(=O)N[C@H](C(=O)O)C(C)C)C(C)C)C(C)C; tested on = HeLa and HEK-293T cells; assay = phosphatase bead binding, competitive inhibitor, PIB pulldown iBAQ LC-MS/MS, refers to: PPP6R3; setting = concentration not given; scale = baseline: untreated control; measurement = log2 fold change; value = -0.00868
SMILES = O[C@@](Cc1ncc(CC2(C(F)(F)F)CC2)[nH]1)(c1ccc(-n2cccn2)cc1)C(F)(F)F; tested on = ACHE; assay = enzyme activity, inhibitor; measurement = IC50; value = inactive
SMILES = COc1ccc(N2C(=O)N(c3c(C)cccc3Cl)Cc3cnc(Nc4ccc(C5CCN(C)CC5)cc4OC)nc32)nc1; tested on = STK11 (Homo sapiens, UniProt Q15831); assay = kinase activity, inhibitor; setting = 0.5 µM, LKB1; measurement = inhibition; value = 4%
SMILES = Oc1ccc2c3c1O[C@H]1[C@@H](O)CC[C@@]4(O)[C@@H](C2)N(CC2CCC2)CC[C@]314; tested on = G-protein coupled receptor 20 (GPR20, Homo sapiens, UniProt Q99678); assay = β-arrestin recruitment, TANGO luminescence, refers to: GPR20; setting = concentration not given; scale = baseline: basal luminescence; measurement = log2 fold change; value = 0.108
SMILES = CCCN(CCc1ccsc1)C1CCc2c(O)cccc2C1.Cl (stereo not drawn); tested on = ACHE; assay = enzyme activity, inhibitor; measurement = IC50; value = inactive
SMILES = CC(=O)N[C@H](C(=O)N1C[C@H](O)C[C@H]1C(=O)NCc1ccc(-c2scnc2C)cc1)C(C)(C)SCCCCCCNC(=O)C[C@@H]1N=C(c2ccc(Cl)cc2)c2c(sc(C)c2C)-n2c(C)nnc21; tested on = BRD2/VHL, BD1; with VCB (Homo sapiens, UniProt P25440+P40337, K107A/Q101K/V106E); assay = ITC; setting = concentration not given, 25 °C, ternary complex, added: BRD2 BD1; measurement = binding stoichiometry; value = 0.9 ± 0.2
SMILES = Cc1ccsc1C(=O)C1CCCN(Cc2cnc(N3CCCC3)s2)C1 (stereo not drawn); tested on = Trypanosoma cruzi; assay = reporter translation, Renilla luciferase mRNA translation; system = cell-free extract; setting = 40 µM; scale = baseline: DMSO; measurement = inhibition; value = -12%
SMILES = CC[C@H](NC(=O)[C@H](CS(=O)(=O)CC1CC1)N[C@@H](c1ccc(F)cc1)C(F)(F)F)C(=O)C(=O)NC1CC1; tested on = ACHE; assay = enzyme activity, inhibitor; measurement = IC50; value = inactive
SMILES = CC[C@H](C)[C@H](NC(=O)CNC(=O)[C@@H](N)CCCCN)C(=O)N[C@@H](CC(C)C)C(=O)N[C@@H](CCCCN)C(=O)N[C@@H](CCCNC(=N)N)C(=O)N[C@@H](CCC(=O)O)C(=O)N[C@@H](CCCCN)C(=O)N[C@@H](CCCNC(=N)N)C(=O)N[C@@H](CC(C)C)C(=O)N[C@@H](CCCNC(=N)N)C(=O)N[C@@H](CCCNC(=N)N)C(=O)N[C@@H](CCCCN)C(=O)N[C@@H](CC(N)=O)C(=O)N[C@H](C(=O)N[C@@H](Cc1c[nH]cn1)C(=O)N[C@@H](Cc1c[nH]c2ccccc12)C(=O)N1CCC[C@H]1C(=O)N[C@@H](CCC(=O)O)C(=O)N[C@@H](CCC(=O)O)C(=O)NCC(=O)N[C@@H](CCCCN)C(=O)N[C@@H](CC(C)C)C(=O)N[C@@H](CCCNC(=N)N)C(=O)N[C@@H](CCC(=O)O)C(=O)N[C@@H](Cc1ccc(O)cc1)C(=O)N[C@@H](Cc1ccccc1)C(=O)N[C@@H](Cc1ccc(O)cc1)C(=O)N[C@@H](Cc1ccccc1)C(=O)N[C@@H](CCC(=O)O)C(=O)N[C@@H](CC(C)C)C(=O)N[C@@H](CC(=O)O)C(=O)N[C@@H](CCC(=O)O)C(=O)N[C@@H](C)C(=O)N[C@@H](CCC(=O)O)C(=O)N[C@@H](CCCNC(=N)N)C(=O)N[C@H](C(=O)N[C@@H](CC(N)=O)C(=O)N[C@H](C(=O)O)C(C)C)C(C)C)C(C)C; tested on = HeLa and HEK-293T cells; assay = phosphatase bead binding, competitive inhibitor, PIB pulldown iBAQ LC-MS/MS, refers to: PPP4R1; setting = concentration not given; scale = baseline: untreated control; measurement = log2 fold change; value = -0.1
SMILES = CC[C@H]1CN2CC[C@H]1C[C@H]2[C@H](O)c1ccnc2ccc(OC)cc12; tested on = ACHE; assay = enzyme activity, inhibitor; measurement = IC50; value = inactive
SMILES = [2H]c1c([2H])c([C@]2([2H])CCCN2C(=O)C(C)(C)Oc2ccc3cn[nH]c3c2)c([2H])c([2H])c1C([2H])([2H])[2H]; tested on = STK17B (Homo sapiens, UniProt O94768); assay = KINOMEscan; setting = 1 µM; scale = baseline: DMSO control; measurement = remaining binding; value = 65%
SMILES = C[N+](C)(CCOc1ccccc1)Cc1cccs1.[I-]; tested on = ACHE; assay = enzyme activity, inhibitor; measurement = IC50; value = inactive
SMILES = CN1CCN(c2cc(-c3ccncc3)c(-c3ccc4ccccc4c3)nn2)CC1; tested on = MRGPRX1 (Homo sapiens, UniProt Q96LB2); assay = agonist, FLIPR; setting = 12.5 µM; measurement = activation; value = 9.5%
SMILES = CN[C@@H](C)[C@H]1[C@H](O)C[C@@]2(C)[C@@H]3CC[C@H]4C(C)(C)[C@@H](NC)CC[C@@]45C[C@@]35CC[C@]12C; tested on = ACHE; assay = enzyme activity, inhibitor; measurement = IC50; value = inactive
SMILES = CCOc1ccccc1C(=O)Nc1ccc(Cl)c(C(F)(F)F)c1; tested on = KAT5 (Homo sapiens, UniProt Q92993); assay = SPR; setting = 17 µM; scale = higher = more binding; measurement = SPR binding response; value = 0.382 RU
SMILES = C[C@H]1CN(c2n[nH]c3nc(N[C@H]4CC[C@H](NS(=O)(=O)CCC(F)(F)F)CC4)ncc23)CCO1; tested on = Very-long-chain enoyl-CoA reductase (Homo sapiens, UniProt Q9NZ01); assay = Kinobeads competition, refers to: GPSN2; setting = 0.8 µM, unit not given; scale = baseline: vehicle; measurement = remaining binding; value = 1.04
SMILES = CN(C)CC#CCC(O)(c1ccccc1)C1CCCC1.Cl (stereo not drawn); tested on = Trypanosoma cruzi; assay = reporter translation, Renilla luciferase mRNA translation; system = cell-free extract; setting = 40 µM; scale = baseline: DMSO; measurement = inhibition; value = 2.3%
SMILES = O=S(=O)([O-])C(F)(F)C(F)(F)C(F)(F)C(F)(F)C(F)(F)C(F)(F)C(F)(F)C(F)(F)F.[K+]; assay = RT-qPCR, refers to: Cyp4a10; system = mouse, ethanol-fed, liver; setting = dose not given; scale = baseline: efavirenz; measurement = mRNA level; value = increased

Excerpt of the above:
SMILES = O=S(=O)([O-])C(F)(F)C(F)(F)C(F)(F)C(F)(F)C(F)(F)C(F)(F)C(F)(F)C(F)(F)F.[K+]; assay = RT-qPCR, refers to: Cyp4a10; system = mouse, ethanol-fed, liver; setting = dose not given; scale = baseline: efavirenz; measurement = mRNA level; value = increased
SMILES = CC[C@H](C)[C@H](NC(=O)CNC(=O)[C@@H](N)CCCCN)C(=O)N[C@@H](CC(C)C)C(=O)N[C@@H](CCCCN)C(=O)N[C@@H](CCCNC(=N)N)C(=O)N[C@@H](CCC(=O)O)C(=O)N[C@@H](CCCCN)C(=O)N[C@@H](CCCNC(=N)N)C(=O)N[C@@H](CC(C)C)C(=O)N[C@@H](CCCNC(=N)N)C(=O)N[C@@H](CCCNC(=N)N)C(=O)N[C@@H](CCCCN)C(=O)N[C@@H](CC(N)=O)C(=O)N[C@H](C(=O)N[C@@H](Cc1c[nH]cn1)C(=O)N[C@@H](Cc1c[nH]c2ccccc12)C(=O)N1CCC[C@H]1C(=O)N[C@@H](CCC(=O)O)C(=O)N[C@@H](CCC(=O)O)C(=O)NCC(=O)N[C@@H](CCCCN)C(=O)N[C@@H](CC(C)C)C(=O)N[C@@H](CCCNC(=N)N)C(=O)N[C@@H](CCC(=O)O)C(=O)N[C@@H](Cc1ccccc1)C(=O)N[C@@H](Cc1ccccc1)C(=O)N[C@@H](Cc1ccccc1)C(=O)N[C@@H](Cc1ccccc1)C(=O)N[C@@H](CCC(=O)O)C(=O)N[C@@H](CC(C)C)C(=O)N[C@@H](CC(=O)O)C(=O)N[C@@H](CCC(=O)O)C(=O)N[C@@H](C)C(=O)N[C@@H](CCC(=O)O)C(=O)N[C@@H](CCCNC(=N)N)C(=O)N[C@H](C(=O)N[C@@H](CC(N)=O)C(=O)N[C@H](C(=O)O)C(C)C)C(C)C)C(C)C; tested on = HeLa and HEK-293T cells; assay = phosphatase bead binding, competitive inhibitor, PIB pulldown iBAQ LC-MS/MS, refers to: PPP6R3; setting = concentration not given; scale = baseline: untreated control; measurement = log2 fold change; value = -0.00868
SMILES = C[N+](C)(CCOc1ccccc1)Cc1cccs1.[I-]; tested on = ACHE; assay = enzyme activity, inhibitor; measurement = IC50; value = inactive
